{"data": "Assay results of several laboratories", "pfo": "pfo (Clostridium perfringens, UniProt P0C2E9)", "Secreted effector protein N-terminal domain": "Secreted effector protein, N-terminal domain (Yersinia pestis, UniProt O68720)", "cyp121": "Mycocyclosin synthase (cyp121, Mycobacterium tuberculosis, UniProt P9WPP7)", "note": "Protocols differ between the studies behind these lines. Several values in a cell are separate wells, animals, samples, runs or records. ± marks the error that the study gave.", "chain of UniProt P0C2E9 (whole entry, looked up)": "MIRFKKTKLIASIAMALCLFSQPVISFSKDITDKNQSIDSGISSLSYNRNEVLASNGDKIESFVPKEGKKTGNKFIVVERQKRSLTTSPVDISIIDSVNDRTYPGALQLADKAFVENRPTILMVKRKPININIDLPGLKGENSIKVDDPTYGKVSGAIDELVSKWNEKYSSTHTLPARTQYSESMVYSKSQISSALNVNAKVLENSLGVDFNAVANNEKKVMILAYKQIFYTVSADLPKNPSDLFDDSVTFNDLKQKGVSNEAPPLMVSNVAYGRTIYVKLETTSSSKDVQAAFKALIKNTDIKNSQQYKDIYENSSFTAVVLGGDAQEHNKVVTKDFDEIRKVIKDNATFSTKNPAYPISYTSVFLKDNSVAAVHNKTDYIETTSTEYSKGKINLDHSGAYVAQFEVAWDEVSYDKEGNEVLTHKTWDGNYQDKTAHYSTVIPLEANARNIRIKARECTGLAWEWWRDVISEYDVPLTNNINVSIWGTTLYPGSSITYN", "chain of UniProt P9WPP7 (whole entry, looked up)": "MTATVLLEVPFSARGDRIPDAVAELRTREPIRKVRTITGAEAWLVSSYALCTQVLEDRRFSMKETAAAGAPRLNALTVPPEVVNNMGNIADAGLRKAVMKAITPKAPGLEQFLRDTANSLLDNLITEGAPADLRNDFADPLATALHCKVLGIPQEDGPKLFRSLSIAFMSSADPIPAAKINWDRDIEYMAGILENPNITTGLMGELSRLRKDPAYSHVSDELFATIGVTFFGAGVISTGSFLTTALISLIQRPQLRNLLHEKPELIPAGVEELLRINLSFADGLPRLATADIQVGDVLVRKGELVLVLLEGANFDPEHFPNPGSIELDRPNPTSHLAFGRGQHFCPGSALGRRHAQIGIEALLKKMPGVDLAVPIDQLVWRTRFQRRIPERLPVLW", "chain of UniProt Q05323 (whole entry, looked up)": "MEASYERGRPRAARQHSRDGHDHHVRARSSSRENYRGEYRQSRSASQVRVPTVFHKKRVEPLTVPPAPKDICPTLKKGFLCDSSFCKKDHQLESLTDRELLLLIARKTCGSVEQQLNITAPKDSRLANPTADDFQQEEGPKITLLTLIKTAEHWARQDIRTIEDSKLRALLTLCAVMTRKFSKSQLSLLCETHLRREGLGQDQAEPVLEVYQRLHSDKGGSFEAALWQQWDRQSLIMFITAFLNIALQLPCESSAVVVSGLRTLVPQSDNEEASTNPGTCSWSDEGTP"}
{"SMILES": "CC(=O)NC1C(OC2C(O)C(CO)OC(OC3C(O)C(CO)OC(OC4C(O)C(O)OC(CO)C4O)C3NC(C)=O)C2OC2OC(C)C(O)C(O)C2O)OC(CO)C(O)C1O (stereo not shown)", "target": "pfo", "test": "binding", "Kd": "150 µM"}
{"SMILES": "O=C(OC1Cc2c(O)cc(O)cc2OC1c1cc(O)c(O)c(O)c1)c1cc(O)c(O)c(O)c1 (single isomer, unassigned; (-))", "target": "Nucleoprotein (Severe acute respiratory syndrome coronavirus 2, UniProt P0DTC9)", "test": "binding, biolayer interferometry", "Kd": "3.88 ± 0.29 µM"}
{"SMILES": "CC(=O)N[C@@H](Cc1ccc(OP(=O)(O)O)cc1)C(=O)N[C@H](C(=O)N[C@@H](CC(=O)O)C(=O)N1CCC[C@H]1C(N)=O)C1CCCC1", "target": "Secreted effector protein N-terminal domain", "test": "biochemical", "Kd": "1.4 µM"}
{"SMILES": "Fc1ccc(-c2ccc(Cn3ccnc3)c(F)c2)cc1F", "target": "cyp121", "test": "binding", "Kd": "6.4 ± 0.9 µM"}
{"SMILES": "C1=CC2=C(c3cc[n+](Cc4ccccc4)cc3)c3ccc4[n]3[Zn][n]3c(ccc3=C(c3cc[n+](Cc5ccccc5)cc3)C3=NC(=C4c4cc[n+](Cc5ccccc5)cc4)C=C3)=C(c3cc[n+](Cc4ccccc4)cc3)C1=N2", "target": "Major prion protein (PRNP, Homo sapiens, UniProt P04156)", "test": "binding", "Kd": "3.1 ± 0.1 µM"}
{"SMILES": "COCCOc1cc(OCCOC)cc(C(=O)NCCOC(=O)[C@@H]2CCCCN2S(=O)(=O)Cc2ccccc2)c1", "target": "Peptidyl-prolyl cis-trans isomerase (Burkholderia pseudomallei, UniProt Q63J95)", "Kd": "8.9 ± 0.2 µM"}
{"SMILES": "CC(=O)NCCCC[C@H](NC(=O)[C@@H](NC(=O)[C@H](CC(C)C)NC(=O)[C@H](CO)NC(C)=O)C(C)C)C(=O)N1CCC[C@H]1C(=O)N[C@@H](CO)C(N)=O", "target": "Bromodomain-containing protein 4, BD1 (BRD4, Homo sapiens, UniProt O60885)", "test": "binding, NMR", "conditions": "pH 6.8", "Kd": "> 1000 µM"}
{"SMILES": "COc1ccc2cc(-c3ccc(Cn4ccnc4)cc3)ccc2c1", "target": "cyp121", "test": "binding", "Kd": "0.6 ± 0.2 µM"}
{"SMILES": "CC(=O)N[C@@H](Cc1ccccc1)C(=O)N[C@@H](Cc1ccc(OP(=O)(O)O)cc1)C(=O)N[C@H](C(=O)N[C@@H](CC(=O)O)C(=O)N1CCC[C@H]1C(N)=O)C1CCCC1", "target": "Secreted effector protein N-terminal domain", "test": "biochemical", "Kd": "0.31 µM"}
{"SMILES": "O=[N+]([O-])c1cc(C(F)(F)F)cc([N+](=O)[O-])c1NNC(=S)Nc1ccc(F)cc1", "target": "Transcriptional activator VP30 (VP30, Zaire ebolavirus, UniProt Q05323)", "test system": "Ebola virus", "Kd": "0.88 µM"}
{"SMILES": "CC(=O)NC1C(OC2C(O)C(O)OC(CO)C2O)OC(CO)C(O)C1OC1OC(CO)C(O)C(OC2OC(CO)C(O)C(O)C2O)C1OC1OC(C)C(O)C(O)C1O (stereo not shown)", "target": "pfo", "test": "binding", "Kd": "31.6 µM and 32 µM"}
{"SMILES": "Cc1ccc(N2CC3CC(C2)N3)cc1C(=O)NC1(c2ccc3c4c(cccc24)C(=O)N3C)CC1", "target": "Replicase polyprotein 1a, papain-like protease (Severe acute respiratory syndrome coronavirus 2, UniProt P0DTC1)", "test": "binding, ITC", "Kd": "0.00583 µM"}
{"SMILES": "CC(C)=CCCC(C)(OC1OC(COC2OC(CO)C(O)C2OC2OCC(O)C(O)C2O)C(O)C(O)C1O)C1CCC2(C)C1C(O)CC1C3(C)CCC(OC4OC(CO)C(O)C(O)C4OC4OC(CO)C(O)C(O)C4O)C(C)(C)C3CCC12C (stereo not shown)", "target": "Spike glycoprotein, S1 subunit (Severe acute respiratory syndrome coronavirus, UniProt P59594)", "test": "binding", "Kd": "55.6 µM"}
{"SMILES": "CC[C@H](C)[C@H](NC(=O)[C@H](CC(C)C)NC(=O)[C@@H](N)Cc1ccc(O)cc1)C(=O)N[C@@H](CSCC(N)=O)C(=O)N[C@@H](Cc1ccc(O)cc1)C(=O)N[C@H](C(=O)N[C@@H](CC(=O)O)C(=O)N[C@@H](CSCC(N)=O)C(=O)NCC(=O)N[C@@H](Cc1ccccc1)C(=O)N[C@@H](CC(C)C)C(=O)N[C@@H](CCCCN)C(=O)N[C@@H](CCCCN)C(=O)N[C@@H](CCCCN)C(=O)N[C@@H](CCCCNC(=O)CCCC[C@@H]1SC[C@@H]2NC(=O)N[C@@H]21)C(N)=O)[C@@H](C)O", "target": "Gag polyprotein, capsid C-terminal domain (gag, UniProt P12493)", "test": "binding, biolayer interferometry", "test system": "PBS", "conditions": "pH 7.4, 30 °C, biotinylated peptide immobilised, together with: C-CA 5 to 100 µM", "Kd": "> 100 µM"}
{"SMILES": "CC[C@H](C)[C@H](NC(C)=O)C(=O)N[C@@H](Cc1ccc(OP(=O)(O)O)cc1)C(=O)N[C@H](C(=O)N[C@@H](CC(=O)O)C(=O)N1CCC[C@H]1C(N)=O)C1CCCC1", "target": "Secreted effector protein N-terminal domain", "test": "biochemical", "Kd": "0.52 µM"}
{"SMILES": "FC(F)(F)c1ccc(-c2ccc(Cn3ccnc3)cc2)cc1", "target": "cyp121", "test": "binding", "Kd": "5.6 µM and ≤ 6 µM"}
{"SMILES": "COc1cc([N+](=O)[O-])cc(/C=N/NC(=O)[C@H]2COc3ccccc3O2)c1O", "target": "uncharacterized protein (Candidatus Liberibacter solanacearum, UniProt A0A094YYW1)", "Kd": "14200 µM"}
{"SMILES": "C(=C\\c1ccc(-c2ccccc2)cc1)/Cn1ccnc1", "target": "cyp121", "test": "binding", "Kd": "4.3 ± 0.8 µM"}
{"SMILES": "O=C(CCOCC(COCCC(=O)NC(Cc1c(-c2cc(C(=O)O)cc(C(=O)O)c2)[nH]c2c(-c3cc(C(=O)O)cc(C(=O)O)c3)cccc12)C(=O)O)(COCCC(=O)NC(Cc1c(-c2cc(C(=O)O)cc(C(=O)O)c2)[nH]c2c(-c3cc(C(=O)O)cc(C(=O)O)c3)cccc12)C(=O)O)COCCC(=O)NC(Cc1c(-c2cc(C(=O)O)cc(C(=O)O)c2)[nH]c2c(-c3cc(C(=O)O)cc(C(=O)O)c3)cccc12)C(=O)O)NC(Cc1c(-c2cc(C(=O)O)cc(C(=O)O)c2)[nH]c2c(-c3cc(C(=O)O)cc(C(=O)O)c3)cccc12)C(=O)O (stereo not shown)", "target": "SBA.1", "Kd": "~5 µM"}
{"note": "Excerpt of the above:"}
{"SMILES": "CC[C@H](C)[C@H](NC(=O)[C@H](CC(C)C)NC(=O)[C@@H](N)Cc1ccc(O)cc1)C(=O)N[C@@H](CSCC(N)=O)C(=O)N[C@@H](Cc1ccc(O)cc1)C(=O)N[C@H](C(=O)N[C@@H](CC(=O)O)C(=O)N[C@@H](CSCC(N)=O)C(=O)NCC(=O)N[C@@H](Cc1ccccc1)C(=O)N[C@@H](CC(C)C)C(=O)N[C@@H](CCCCN)C(=O)N[C@@H](CCCCN)C(=O)N[C@@H](CCCCN)C(=O)N[C@@H](CCCCNC(=O)CCCC[C@@H]1SC[C@@H]2NC(=O)N[C@@H]21)C(N)=O)[C@@H](C)O", "target": "Gag polyprotein, capsid C-terminal domain (gag, UniProt P12493)", "test": "binding, biolayer interferometry", "test system": "PBS", "conditions": "pH 7.4, 30 °C, biotinylated peptide immobilised, together with: C-CA 5 to 100 µM", "Kd": "> 100 µM"}
{"SMILES": "CC(=O)NC1C(OC2C(O)C(CO)OC(OC3C(O)C(CO)OC(OC4C(O)C(O)OC(CO)C4O)C3NC(C)=O)C2OC2OC(C)C(O)C(O)C2O)OC(CO)C(O)C1O (stereo not shown)", "target": "pfo", "test": "binding", "Kd": "150 µM"}
